Experimental data pooled from the literature.
Every numbered part comes from another study and shows a few of its results, in no order.

Block 1
Target: Phosphate system positive regulatory protein PHO4, full length, GST-tagged (PHO4, Saccharomyces cerevisiae, UniProt P07270, residues 1-312)
Method: competition protein-binding microarray
Form: double-stranded DNA, one strand shown
Matrix: in vitro
Concentration: 2 µM
Notes: whole 60-bp probe, lowest competitor level
Together with: Cbf1 competitor, 0.05 µM
Direction: higher = stronger binding
Constant ends, left off below: … GTCTTGATTCGCTTGACGCTGCTG
Residues (chain): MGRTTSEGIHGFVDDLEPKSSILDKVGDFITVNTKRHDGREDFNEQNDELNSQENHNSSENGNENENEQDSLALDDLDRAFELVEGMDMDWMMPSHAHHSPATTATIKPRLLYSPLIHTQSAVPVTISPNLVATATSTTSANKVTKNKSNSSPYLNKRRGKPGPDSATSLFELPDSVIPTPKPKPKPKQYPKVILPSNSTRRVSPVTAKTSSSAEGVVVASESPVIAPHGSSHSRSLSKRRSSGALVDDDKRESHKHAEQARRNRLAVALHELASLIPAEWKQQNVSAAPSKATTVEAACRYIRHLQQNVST
| Sequence | fluorescence intensity |
| --- | --- |
| GCCGCAAATGGCAATCACATGACAATGGCTTGGCCC | 5970 a.u. |
| AGAAACTTCAACTCACATATGCACTATGGATGCCAA | 4860 a.u. |
| TAACGATGTCATTGCCACGTGGAACATCTTGATTGG | 17800 a.u. |
| AGTACTGTAGGCTTGCACACTTTGTTCGCACTCTTA | 5200 a.u. |
| CTCTGAGTTTTTTGACACATGCCAGAAGAAACGTTA | 9160 a.u. |

Block 2
Target: Histone acetyltransferase KAT6A, winged helix 1, GST fusion (KAT6A, Homo sapiens, UniProt Q92794, residues 1-85)
Method: protein binding microarray
Form: double-stranded DNA, one strand shown
Matrix: in vitro
Concentration: not given
Notes: 8-mer, flanks averaged, mean of 2 arrays, mostly near background
Reference: not given
Direction: higher = stronger binding
Residues (chain): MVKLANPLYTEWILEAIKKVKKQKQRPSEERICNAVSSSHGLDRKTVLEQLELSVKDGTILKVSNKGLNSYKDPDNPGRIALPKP
| Sequence | E-score |
| --- | --- |
| AATTCTCC | -0.0223 |
| ATATTCAT | -0.16 |
| ACTGATAA | -0.156 |
| GCAAGAAA | -0.0425 |
| AAATGATG | -0.273 |
| CTAACGAA | 0.0438 |

Block 3
Target: Prothrombin, mature alpha-thrombin (F2, Homo sapiens, UniProt P00734)
Method: aptamer microarray, sandwich
Form: DNA with 2'F-ANA
Matrix: in vitro
Concentration: 200 nM
Notes: whole 15-mer aptamer, many near background
Together with: Cy3 exosite-II aptamer, 400 nM
Direction: higher = stronger binding
Sequence: GGTTGGTGTGGTTGG
| Modification | mean fluorescence intensity |
| --- | --- |
| 2'F-ANA at 2 3 7 8 9 10 12 13 14 15 | 289 a.u. |
| 2'F-ANA at 1 7 8 9 11 13 14 | 56.5 a.u. |
| 2'F-ANA at 2 3 6 11 14 | 374 a.u. |
| 2'F-ANA at 3 6 | 1090 a.u. |
| 2'F-ANA at 4 6 9 10 11 14 | 57.1 a.u. |

Further values, each from its own experiment
| Substance | target | test | test system | setting | scale | quantity | value |
| --- | --- | --- | --- | --- | --- | --- | --- |
| PhoQ, residues 284 288 289 292 302 303 SLGVVW | PhoP, residues 12 14 15 18 19 HEGLL (Escherichia coli, UniProt P23836) | Sort-seq, item: YFP reporter | E. coli | PhoQ-PhoP variant library, together with: 10 µM Mg2+ | reference: high Mg2+ state, higher = stronger signaling | fold induction | 18.3 |
